Measurements pooled from the literature.
Compare with care: the assays were run in different laboratories. “And” joins repeats or separate records; there may be more than shown. ± marks the error that the study gave.

| SMILES | test | system | conditions | scale | measurement | value |
| --- | --- | --- | --- | --- | --- | --- |
| CSCC[C@H](N)C(=O)N[C@@H](C)C(=O)N[C@@H](CCCNC(=N)N)C(=O)N[C@@H](CCCNC(=N)N)C(=O)N[C@@H](CC(=O)O)C(=O)N[C@@H](CCCCN)C(=O)N[C@H](C(=O)N[C@@H](CC(=O)O)C(=O)N[C@@H](Cc1ccccc1)C(=O)N[C@@H](C)C(=O)N[C@@H](CCCNC(=N)N)C(=O)N[C@@H](CCCNC(=N)N)C(=O)N[C@@H](CCCNC(=N)N)C(=O)N[C@@H](CCCNC(=N)N)C(=O)NCCCCCC(=O)NCCCCC(NC(=O)CCCCCNC(=O)[C@H](CCCNC(=N)N)NC(=O)[C@H](CCCNC(=N)N)NC(=O)[C@H](CCCNC(=N)N)NC(=O)[C@H](CCCNC(=N)N)NC(=O)[C@H](C)NC(=O)[C@H](Cc1ccccc1)NC(=O)[C@H](CC(=O)O)NC(=O)[C@@H](NC(=O)[C@H](CCCCN)NC(=O)[C@H](CC(=O)O)NC(=O)[C@H](CCCNC(=N)N)NC(=O)[C@H](CCCNC(=N)N)NC(=O)[C@H](C)NC(=O)[C@@H](N)CCSC)[C@@H](C)O)C(=O)NCCCCC(NC(=O)C(CCCCNC(=O)CCCCCNC(=O)[C@H](CCCNC(=N)N)NC(=O)[C@H](CCCNC(=N)N)NC(=O)[C@H](CCCNC(=N)N)NC(=O)[C@H](CCCNC(=N)N)NC(=O)[C@H](C)NC(=O)[C@H](Cc1ccccc1)NC(=O)[C@H](CC(=O)O)NC(=O)[C@@H](NC(=O)[C@H](CCCCN)NC(=O)[C@H](CC(=O)O)NC(=O)[C@H](CCCNC(=N)N)NC(=O)[C@H](CCCNC(=N)N)NC(=O)[C@H](C)NC(=O)[C@@H](N)CCSC)[C@@H](C)O)NC(=O)CCCCCNC(=O)[C@H](CCCNC(=N)N)NC(=O)[C@H](CCCNC(=N)N)NC(=O)[C@H](CCCNC(=N)N)NC(=O)[C@H](CCCNC(=N)N)NC(=O)[C@H](C)NC(=O)[C@H](Cc1ccccc1)NC(=O)[C@H](CC(=O)O)NC(=O)[C@@H](NC(=O)[C@H](CCCCN)NC(=O)[C@H](CC(=O)O)NC(=O)[C@H](CCCNC(=N)N)NC(=O)[C@H](CCCNC(=N)N)NC(=O)[C@H](C)NC(=O)[C@@H](N)CCSC)[C@@H](C)O)C(N)=O)[C@@H](C)O (stereo partly drawn) | – | C57BL/6 mouse female, spleen | dose not given, 3 h | relative to: total | tissue distribution | 0.61% and 1.32% and 0.88% |
| C[C@H](O)[C@@H](NC(=O)[C@H]1CCCN1C(=O)[C@@H](CCCCN)NC(=O)[C@@H](CO)NC(=O)[C@@H](Cc1ccc(O)cc1)NC(=O)[C@@H](CC(N)=O)NC(=O)CCOCCOCCOCCNC(=O)CN1CCN(CC(=O)O)CCN(CC(=O)O)CCN(CC(=O)O)CC1)C(=O)N[C@H](CC(=O)O)C(=O)N[C@H](CCCNC(=N)N)C(=O)N[C@H](CCC(N)=O)C(=O)N[C@H](Cc1ccc(O)cc1)C(=O)N[C@H](Cc1c[nH]cn1)C(=O)N[C@H](Cc1ccccc1)C(N)=O [gallium-68 labelled] | – | BALB/c nude mice U-87 MG tumour, tumor | intravenous, 1.85 MBq, 0.5 h, radiolabelled | – | tissue uptake | 3.77 ± 0.27 %ID/g |
| CSCC[C@H](NC(=O)CNC(=O)[C@H](CCCCN)NC(=O)[C@H](CC(C)C)NC(=O)[C@@H]1CCCN1C(=O)[C@H](CO)NC(=O)[C@H](Cc1c[nH]cn1)NC(=O)[C@H](Cc1c[nH]c2ccccc12)NC(=O)[C@H](CCCNC(=N)N)NC(=O)[C@H](CC(C)C)NC(=O)[C@H](CCCNC(=N)N)NC(=O)[C@H](Cc1c[nH]c2ccccc12)NC(=O)[C@H](CS)NC(=O)CCCCCNC(=O)CN1CCN(CC(=O)O)CCN(CC(=O)O)CCN(CC(=O)O)CC1)C(=O)O [copper-64 labelled] | ex vivo biodistribution | BALB/c nude mice, stomach | intravenous, dose not given, 6 h, Huh-7 tumour-bearing | – | tissue uptake | 3.27 %ID/g |
| N#[11C]c1ccc(-c2csc(NN=C3CCCC3)n2)cc1 | – | C57BL/6 mice, male, muscle | intravenous, 3 MBq, 5 min | – | radioactivity uptake | 2.47 ± 0.48 %ID/g |
| N=C(N)NCCC[C@H](NC(=O)[C@H](CCCNC(=N)N)NC(=O)[C@H](CCCNC(=N)N)NC(=O)[C@H](CCC(N)=O)NC(=O)[C@H](CCCNC(=N)N)NC(=O)[C@H](CCCNC(=N)N)NC(=O)[C@H](CCCCN)NC(=O)[C@H](CCCCN)NC(=O)[C@H](CCCNC(=N)N)NC(=O)CNC(=O)[C@H](Cc1ccc(O)cc1)NC(=O)[C@H](Cc1ccccc1)NC(=O)[C@H](Cc1ccccc1)NC(=O)[C@H](Cc1ccccc1)NC(=O)OCC1c2ccccc2-c2ccccc21)C(=O)O | – | C57BL/6 mice | intraperitoneal, 5 mg/kg, 48 h | direction not given | health score | 5 |
| O=C1NC2(CC2)COc2ncc(F)cc2[C@H]2COCCN2c2ccn3ncc1c3n2 | – | Sprague-Dawley rat, female, serum | oral, 2.5 mg/kg/day, 4 weeks daily, end of treatment | – | albumin | 37.8 ± 2.7 g/L |
| CC1(C)C(=O)N(c2ccc(C#N)c(C(F)(F)F)c2)C(=S)N1c1ccc(C(N)=O)c(F)c1 | – | human, male, plasma | oral, 160 mg, single dose, fasting | – | half-life | 10.2 ± 3.9 days |
| Cc1ccccc1/N=N/c1ccc2[nH]cc(CCN(C)C)c2c1 | light irradiation | solution | together with: light 385 nm | – | cis isomer at photostationary state | 82% |
| CC[C@H](C)[C@H](NC(=O)[C@H](C)NC(=O)[C@H](CCCCN)NC(=O)[C@H](CCCCN)NC(=O)[C@@H](N)CCCNC(=N)N)C(=O)N[C@@H](CCCCN)C(=O)N[C@@H](CC(C)C)C(=O)N[C@H](C(=O)N[C@@H](CCCCN)C(=O)N[C@@H](CCCCN)C(=O)N[C@@H](CC(C)C)C(=O)N[C@H](C(=O)N[C@@H](CCCCN)C(=O)N[C@@H](CCCCN)C(=O)N[C@@H](CC(C)C)C(=O)N[C@@H](CCCCN)C(=O)N[C@@H](CCCCN)C(=O)N[C@@H](C)C(=O)N[C@@H](CC(C)C)C(=O)N[C@@H](CCCCN)C(=O)O)C(C)C)C(C)C | – | human red blood cells | 16 mg/L, 1 h, mean of replicates | – | hemolysis | 2.09% |
| CC(=O)CCC1C(=O)NC(C(C)C)C(=O)NC(Cc2cc(O)cc(F)c2)C(=O)N2CCCC(N2)C(=O)OC(C(C)=CC=CC(=O)N2CCCCO2)CC=CC=CC(O)C(C)C1O (stereo not drawn) | – | male Sprague-Dawley rat, liver | oral, 5 mg/kg | – | AUC | 32800 ng·h/mL |
| CC(C)C[C@@H](NC(=O)[C@@H](CCCNC(=N)N)NC(=O)[C@@H](Cc1c[nH]cn1)NC(=O)[C@@H](Cc1c[nH]c2ccccc12)NC(=O)[C@@H](Cc1c[nH]cn1)NC(=O)[C@@H](Cc1ccccc1)NC(=O)[C@H](NC(=O)[C@@H](Cc1ccc(O)cc1)NC(=O)CNC(=O)CNC(=O)CCOCCOCCOCCNC(=O)CN1CCN(CC(=O)O)CCN(CC(=O)O)CC1)[C@H](C)O)C(=O)N[C@H](CC(N)=O)C(=O)N1CCC[C@@H]1C(=O)O [gallium-68 labelled] | – | male C57BL/6 mice | intravenous, 1.85 MBq, 60 min, together with: GP12 blocking | relative to: tumour over lung | tumour-to-tissue ratio | 0.62 ± 0.23 |
| CN1Cc2cc(Cl)ccc2-n2c(nnc2C2CCN(c3cccc([18F])n3)CC2)C1 | – | C57BL/6 mouse male, blood | intravenous, 3.7 MBq, 5 min | – | tissue uptake | 3.63 ± 0.23 %ID/g |
| CC(C)C[C@H](NC(=O)[C@H](Cc1ccc(O)cc1)NC(=O)[C@H](C)NC(=O)[C@H](CC(N)=O)NC(=O)[C@H](CC(C)C)NC(=O)[C@H](C)NC(=O)[C@@H](NC(=O)[C@H](CCCCN)NC(=O)CNC(=O)[C@@H](NC(=O)[C@H](CC(N)=O)NC(=O)[C@H](CCCCN)NC(=O)CNC(=O)[C@@H](NC(=O)[C@H](Cc1c[nH]cn1)NC(=O)[C@H](C)NC(=O)[C@H](C)NC(=O)[C@H](CCCCN)NC(=O)[C@H](CCCCN)NC(=O)[C@H](Cc1ccccc1)NC(=O)[C@H](Cc1c[nH]c2ccccc12)NC(=O)[C@H](CCCCN)NC(=O)[C@H](CCCCN)NC(=O)[C@H](CS)NC(=O)CN)C(C)C)C(C)C)C(C)C)C(N)=O | – | zebrafish embryos 4 hpf, E3 medium | 24 h | – | chronic toxic concentration | 5 µM |
| CC(C)[C@@H]1NC(=O)CNC(=O)[C@H](CC(N)=O)NC(=O)[C@H](CCCNC(=N)N)NC(=O)[C@H](Cc2ccc(O)cc2)NC(=O)[C@H](C(C)C)NC(=O)[C@@H](NC(=O)[C@@H](NC(=O)[C@H](CC(N)=O)NC(=O)[C@H](Cc2c[nH]c3ccccc23)NC(=O)[C@H](C)NC(=O)[C@H](Cc2ccccc2)NC(=O)CNC(=O)[C@H](CCCCN)NC(=O)[C@H](Cc2ccccc2)NC(=O)[C@H](Cc2ccccc2)NC(=O)[C@H](CCCCN)NC(=O)OCC2c3ccccc3-c3ccccc32)C(C)C)CSSC[C@@H](C(=O)N[C@@H](Cc2c[nH]cn2)C(=O)N[C@@H](CCCNC(=N)N)C(=O)N[C@@H](CCCNC(=N)N)C(=O)N[C@@H](C)C(=O)N[C@@H](CC(N)=O)C(N)=O)NC(=O)[C@H](C(C)C)NC(=O)[C@H](CCCNC(=N)N)NC1=O | – | ICR mice, blood | intraperitoneal, 5 mg/kg, day 5 | – | basophils | 1.58 ± 0.25% |
| CC(C)NCCCn1c(Sc2cc3c(cc2I)OCO3)nc2c(N)ncnc21 | LC-MS/MS | mouse, MDA-MB-468 xenograft, tumour | 50 mg/kg single dose, 24 h | – | tumour concentration | 3.6 µM |
| COc1ccc(CNc2ccc3c(c2)S(=O)(=O)C=C3)cc1 | – | male C57BL/6 mice, blood | intraperitoneal, 5 mg/kg, day 8, group average | – | red cell distribution width CV | 0.14% |
| CC[C@H](C)[C@H](NC(=O)[C@H](CCCCN)NC(=O)CNC(=O)[C@H](CC(C)C)NC(=O)[C@H](Cc1ccccc1)NC(=O)[C@H](CCCCN)NC(=O)[C@H](CO)NC(=O)[C@H](Cc1ccccc1)NC(=O)[C@H](Cc1c[nH]c2ccccc12)NC(=O)[C@H](CCC(N)=O)NC(=O)[C@@H](NC(=O)[C@H](Cc1ccccc1)NC(=O)CCCCCNC(=O)CN1CCN(CC(=O)O)CCN(CC(=O)O)CCN(CC(=O)O)CC1)C(C)C)C(=O)N[C@@H](CCC(=O)O)C(=O)N1CCC[C@H]1C(=O)N[C@@H](CC(=O)O)C(=O)N[C@H](C(=O)N[C@@H](CO)C(=O)N[C@@H](CCC(N)=O)C(=O)N[C@H](C(=O)N[C@@H](CCC(N)=O)C(=O)N[C@@H](CC(=O)O)C(=O)N1CCC[C@H]1C(=O)N[C@@H](CC(N)=O)C(=O)N[C@@H](CC(=O)O)C(=O)N[C@@H](CCC(N)=O)C(=O)N[C@@H](Cc1ccc(O)cc1)C(=O)N[C@@H](CCC(=O)O)C(=O)N1CCC[C@H]1C(=O)N[C@@H](Cc1ccccc1)C(=O)O)C(C)C)C(C)C [copper-64 labelled] | dynamic PET | mouse, CT26 tumour, checkpoint inhibitor-treated, tumour | intravenous, 100 µCi/mouse, 2820 s | – | SUVmean | 4.63 SUV |
| Cc1cccc(-c2cccc(C)n2)n1.Cc1cccc(-c2cccc(C)n2)n1.F[P-](F)(F)(F)(F)F.F[P-](F)(F)(F)(F)F.[Ru+2].c1ccc(-c2nc3c4cccnc4c4ncccc4c3[nH]2)cc1 | – | aerated acetonitrile | 298 K | relative to: Ru(bpy)3(PF6)2 | singlet oxygen quantum yield | 0.01 |

Some of these lines once more:
| SMILES | test | system | conditions | scale | measurement | value |
| --- | --- | --- | --- | --- | --- | --- |
| N#[11C]c1ccc(-c2csc(NN=C3CCCC3)n2)cc1 | – | C57BL/6 mice, male, muscle | intravenous, 3 MBq, 5 min | – | radioactivity uptake | 2.47 ± 0.48 %ID/g |
